Measurements from different studies.
Every numbered part comes from another study and shows a few of its results, in no order.
Sequence of UniProt Q86Z02 (whole entry, looked up): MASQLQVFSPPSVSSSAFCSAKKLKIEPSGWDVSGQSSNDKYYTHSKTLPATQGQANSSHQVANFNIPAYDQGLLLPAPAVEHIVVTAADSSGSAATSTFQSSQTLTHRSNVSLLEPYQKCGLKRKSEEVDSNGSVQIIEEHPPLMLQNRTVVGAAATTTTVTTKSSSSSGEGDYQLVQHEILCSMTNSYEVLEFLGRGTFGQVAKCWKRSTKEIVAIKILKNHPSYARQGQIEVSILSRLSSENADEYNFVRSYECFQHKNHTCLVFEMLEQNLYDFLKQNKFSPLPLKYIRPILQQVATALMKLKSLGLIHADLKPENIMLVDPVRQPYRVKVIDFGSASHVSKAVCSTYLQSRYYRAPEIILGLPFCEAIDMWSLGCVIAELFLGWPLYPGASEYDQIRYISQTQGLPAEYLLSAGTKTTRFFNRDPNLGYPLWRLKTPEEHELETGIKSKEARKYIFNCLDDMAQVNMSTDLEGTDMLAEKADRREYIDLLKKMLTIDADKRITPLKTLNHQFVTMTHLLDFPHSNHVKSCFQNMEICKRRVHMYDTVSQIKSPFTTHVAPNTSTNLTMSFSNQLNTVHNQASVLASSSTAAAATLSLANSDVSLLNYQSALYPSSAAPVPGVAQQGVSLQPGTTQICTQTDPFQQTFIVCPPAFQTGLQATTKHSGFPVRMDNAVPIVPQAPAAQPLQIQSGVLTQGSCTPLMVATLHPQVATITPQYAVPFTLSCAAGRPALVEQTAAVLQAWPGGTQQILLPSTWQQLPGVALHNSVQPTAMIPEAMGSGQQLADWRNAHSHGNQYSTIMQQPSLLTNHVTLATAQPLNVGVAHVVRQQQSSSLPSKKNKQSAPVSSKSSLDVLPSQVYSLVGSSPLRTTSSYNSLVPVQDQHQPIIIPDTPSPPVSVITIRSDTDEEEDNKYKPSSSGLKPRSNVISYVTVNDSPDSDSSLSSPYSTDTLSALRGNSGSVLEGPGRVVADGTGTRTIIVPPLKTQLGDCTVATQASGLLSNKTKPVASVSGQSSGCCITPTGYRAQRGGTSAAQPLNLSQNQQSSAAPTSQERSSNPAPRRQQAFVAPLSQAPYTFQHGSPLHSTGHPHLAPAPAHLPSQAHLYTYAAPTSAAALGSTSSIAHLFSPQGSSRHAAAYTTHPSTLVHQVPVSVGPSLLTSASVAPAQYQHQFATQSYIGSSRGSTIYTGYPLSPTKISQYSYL

Study 1
Target: Centromere-binding protein 1, full length, N-terminal tag (CBF1, Saccharomyces cerevisiae, UniProt P17106, residues 1-351)
Sequence of UniProt P17106 (whole entry, looked up): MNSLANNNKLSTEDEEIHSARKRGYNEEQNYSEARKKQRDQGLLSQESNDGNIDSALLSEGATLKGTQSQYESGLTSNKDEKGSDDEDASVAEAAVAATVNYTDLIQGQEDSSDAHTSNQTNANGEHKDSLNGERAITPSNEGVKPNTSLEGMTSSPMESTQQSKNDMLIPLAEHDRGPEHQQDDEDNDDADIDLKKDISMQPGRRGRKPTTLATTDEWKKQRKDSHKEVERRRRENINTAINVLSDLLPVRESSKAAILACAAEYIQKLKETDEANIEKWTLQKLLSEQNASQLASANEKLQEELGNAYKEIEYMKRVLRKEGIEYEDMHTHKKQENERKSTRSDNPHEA
Technique: protein-binding microarray
Molecule type: double-stranded DNA, one strand shown
Medium: in vitro
Concentration: 0.8 µM
Setting: whole 60-bp probe, no competitor
Reading: higher = stronger binding
All sequences stand within: … GTCTTGATTCGCTTGACGCTGCTG
| Sequence | fluorescence intensity |
| --- | --- |
| CTACACCCACACCCACACCACACCCACACCCACTTC | 548 a.u. |
| GAATATATACAACATCATGCTCTTAAAAGAATATAG | 576 a.u. |
| CTATACCACCACCTCCCCGTGATTTACATTCAGTTC | 1340 a.u. |
| TGTACGAAGCTATATAGTCACGTTATAGTAGTTAGG | 2640 a.u. |
| GAATACTTTATACAACATGTGAAATCTTCTGCTTAG | 623 a.u. |
| CTAAAAAAAAGGCACCACGTGACTAGAGAATCATTC | 20000 a.u. |
| CTAAAGCCATACCACCACCAATGATGATAGAGTTTC | 508 a.u. |
| CTAACGCAATATTTCTACGTGATATCTATAAAATTC | 636 a.u. |

Study 2
Target: Prothrombin, mature alpha-thrombin (F2, Homo sapiens, UniProt P00734)
Technique: aptamer microarray, sandwich
Molecule type: DNA with 2'F-ANA
Medium: in vitro
Concentration: 200 nM
Setting: whole 15-mer aptamer, many near background
With: Cy3 exosite-II aptamer, 400 nM
Reading: higher = stronger binding
Sequence: GGTTGGTGTGGTTGG
| Modification | mean fluorescence intensity |
| --- | --- |
| 2'F-ANA at 1 4 5 7 8 9 10 12 13 14 | 46.5 a.u. |
| 2'F-ANA at 2 5 6 9 11 12 15 | 114 a.u. |
| 2'F-ANA at 3 5 8 10 14 15 | 57 a.u. |
| 2'F-ANA at 3 4 6 12 15 | 841 a.u. |
| 2'F-ANA at 2 3 4 5 7 8 9 11 12 15 | 155 a.u. |
| 2'F-ANA at 1 3 5 6 12 15 | 115 a.u. |
| 2'F-ANA at 3 5 7 10 11 12 13 15 | 60.9 a.u. |
| 2'F-ANA at 1 4 6 7 10 13 14 | 44.8 a.u. |

Other studies, line by line
| Substance | target | assay | test system | conditions | scale | measurement | value |
| --- | --- | --- | --- | --- | --- | --- | --- |
| PhoQ, residues 284 288 289 292 302 303 NLCILV | PhoP, residues 12 14 15 18 19 TTLRV (Escherichia coli, UniProt P23836) | Sort-seq, refers to: YFP reporter | E. coli | PhoQ-PhoP variant library, with: 10 µM Mg2+ | reference: high Mg2+ state, higher = stronger signaling | fold induction | 24.4 |
| Cc1ccc(NC(=O)c2ccc(CN3CCN(C)CC3)cc2)cc1Nc1nccc(-c2cccnc2)n1 | HIPK1 (Homo sapiens, UniProt Q86Z02) | enzyme activity, inhibitor |  | 0.5 µM | reference: control | remaining activity | 97% |

Excerpt of the above (other studies, line by line):
| Substance | target | assay | test system | conditions | scale | measurement | value |
| --- | --- | --- | --- | --- | --- | --- | --- |
| PhoQ, residues 284 288 289 292 302 303 NLCILV | PhoP, residues 12 14 15 18 19 TTLRV (Escherichia coli, UniProt P23836) | Sort-seq, refers to: YFP reporter | E. coli | PhoQ-PhoP variant library, with: 10 µM Mg2+ | reference: high Mg2+ state, higher = stronger signaling | fold induction | 24.4 |
| Cc1ccc(NC(=O)c2ccc(CN3CCN(C)CC3)cc2)cc1Nc1nccc(-c2cccnc2)n1 | HIPK1 (Homo sapiens, UniProt Q86Z02) | enzyme activity, inhibitor |  | 0.5 µM | reference: control | remaining activity | 97% |
